Published values pooled from the literature.
Every numbered part comes from another study and shows a few of its results, in no order.

Series 1
Target: Sal-like protein 4, full length isoform A (SALL4, Homo sapiens, UniProt Q9UJQ4, residues 1-1053)
Sequence of UniProt Q9UJQ4 (whole entry, looked up): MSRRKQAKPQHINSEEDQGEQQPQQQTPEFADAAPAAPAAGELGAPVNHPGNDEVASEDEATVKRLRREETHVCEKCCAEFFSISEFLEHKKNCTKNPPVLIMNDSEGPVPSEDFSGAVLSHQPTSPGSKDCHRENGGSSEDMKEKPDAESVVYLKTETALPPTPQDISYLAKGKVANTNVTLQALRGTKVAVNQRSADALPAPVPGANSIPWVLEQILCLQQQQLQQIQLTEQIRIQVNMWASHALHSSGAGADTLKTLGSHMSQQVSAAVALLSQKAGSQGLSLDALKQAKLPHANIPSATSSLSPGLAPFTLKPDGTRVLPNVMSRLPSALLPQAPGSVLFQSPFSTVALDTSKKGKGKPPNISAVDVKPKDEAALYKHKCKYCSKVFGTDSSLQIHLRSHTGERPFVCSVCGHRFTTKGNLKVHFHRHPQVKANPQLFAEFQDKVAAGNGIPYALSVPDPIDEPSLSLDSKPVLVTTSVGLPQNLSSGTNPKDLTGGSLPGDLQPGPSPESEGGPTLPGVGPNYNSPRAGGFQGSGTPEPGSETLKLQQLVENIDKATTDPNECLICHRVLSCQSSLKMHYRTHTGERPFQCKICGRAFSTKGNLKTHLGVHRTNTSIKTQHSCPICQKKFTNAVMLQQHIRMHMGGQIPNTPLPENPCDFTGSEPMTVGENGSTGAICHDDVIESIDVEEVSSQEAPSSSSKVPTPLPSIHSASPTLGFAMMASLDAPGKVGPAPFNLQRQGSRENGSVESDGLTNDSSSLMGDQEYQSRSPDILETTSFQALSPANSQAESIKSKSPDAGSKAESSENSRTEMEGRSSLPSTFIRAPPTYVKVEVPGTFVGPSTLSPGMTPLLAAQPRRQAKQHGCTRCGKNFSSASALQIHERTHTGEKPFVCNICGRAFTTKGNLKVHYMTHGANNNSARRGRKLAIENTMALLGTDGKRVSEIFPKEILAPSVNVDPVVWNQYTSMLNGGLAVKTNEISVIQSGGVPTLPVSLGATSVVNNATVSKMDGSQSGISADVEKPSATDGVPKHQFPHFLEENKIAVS
Technique: universal PBM
Form: double-stranded DNA, one strand shown
Matrix: in vitro
Tested at: 600 nM
Setting: 8-mer, flanks averaged, mean of replicates
Direction: higher = stronger binding
Quantity: E-score
Strand = CTCTGATC; result = -0.139
Strand = GCGAACAC; result = -0.27
Strand = ACTAGTAG; result = 0.123
Strand = CATGAAGA; result = 0.171
Strand = ACATGTGA; result = 0.135
Strand = GATCGGCA; result = -0.0914
Strand = ACCATGAC; result = -0.148
Strand = CAGGACTG; result = -0.189
Strand = AAGCGATC; result = -0.0503
Strand = GCACCAAA; result = 0.122
Strand = CAGCAGGG; result = -0.244
Strand = TAACTCCA; result = 0.0148
Strand = CTGTTCAA; result = 0.0388
Strand = ACACCGCT; result = -0.218
Strand = GAACGTGC; result = -0.201
Strand = ATCGGATA; result = 0.144
Strand = ACCAGTAT; result = -0.0163
Strand = GCTGGTGA; result = -0.105
Strand = CGACGCCA; result = -0.25
Strand = GATAAGAC; result = 0.121
Strand = ATGATCAT; result = 0.235
Strand = AGCTTACA; result = 0.197
Strand = CATACGCG; result = -0.0592

Series 2
Target: Interferon regulatory factor 5, full length, phosphomimetic (IRF5, Homo sapiens, UniProt Q13568-2, residues 1-514, S451D/S453D/S456D/S462D)
Technique: protein-binding microarray
Form: double-stranded DNA, one strand shown
Matrix: in vitro
Tested at: 940 nM top
Setting: 60-bp whole probe
Together with: salmon DNA 0.4 mg/ml
Reference: random background probes
Direction: higher = stronger binding
Quantity: fitted relative affinity
Shared flanks, not repeated: GCCTAGCAC … GTCTTGATTCGCTTGACGCTGCTG
Strand = TTAGATCTCAATCTCGATTAGTGCTAG; result = 1.34 z-score
Strand = GACGGACTGGACCCTGGGGACGTGCTA; result = -0.598 z-score
Strand = TTAGGACTGGACACCGGGTTAGTGCTA; result = -0.581 z-score
Strand = TAACTAATATTAAATATGTAGTGCTAG; result = 0.163 z-score
Strand = TTAGATTTCGGGTATGGATTAGTGCTA; result = 1.24 z-score
Strand = ACCCATTGAGATTTTCATTATGTGCTA; result = 0.528 z-score
Strand = TTAGGTTTCGACAATCGGTTAGTGCTA; result = 7.83 z-score
Strand = TTAGGTATCCATCTCCTTTAGTGCTAG; result = 0.771 z-score
Strand = GAGGAGGGGCTGTTACTCTCGTGCTAG; result = 0.462 z-score
Strand = GACGGTTTCGGGACTGAGGACGTGCTA; result = 7.2 z-score
Strand = GCTTCCTCCTACCCGACCCCGTGCTAG; result = 0.809 z-score
Strand = CACGGTTTCGGGTATCGGGACGTGCTA; result = 8.71 z-score
Strand = GACGGTTTCGACTTTCCGGACGTGCTA; result = 8.35 z-score
Strand = CCCTCCCTAATTCTGATTGGGTGCTAG; result = 0.351 z-score
Strand = GCCGGTTTCGGTCTCGGGACGTGCTAG; result = 15.1 z-score
Strand = TTAGACCTGGGGTATCGATTAGTGCTA; result = 2.8 z-score
Strand = TTAGGTTTCATTATCCTTTAGTGCTAG; result = 7.04 z-score
Strand = TCAGCTTTCCTGATGACACTGTGCTAG; result = -0.0963 z-score
Strand = TGAGGACTGCTTCTCCTTTAGTGCTAG; result = -0.343 z-score
Strand = GACGGTATCATTTTCCTGACGTGCTAG; result = 2.89 z-score
Strand = TCATCAATCATTTTCGTACTGTGCTAG; result = 0.865 z-score

Series 3
Target: RNA binding protein fox-1 homolog 2, RRM domain, GST-SBP tag (RBFOX2, Homo sapiens, UniProt O43251-10, residues 100-194)
Technique: RNA Bind-n-Seq
Form: RNA
Matrix: in vitro
Tested at: 365 nM
Setting: natural RNA segment, single round, ends assumed
Reference: no-protein control
Direction: higher = stronger binding
Quantity: RBNS enrichment (R)
Shared flanks, not repeated: GGGAGUUCUACAGUCCGACGAUC … UGGAAUUCUCGGGUGCCAA
Residues (chain): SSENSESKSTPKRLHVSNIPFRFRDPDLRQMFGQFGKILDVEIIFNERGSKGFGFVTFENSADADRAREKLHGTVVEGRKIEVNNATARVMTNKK
Strand = GGCCUCCCCACUCUGGUGUCUAUGACUGGCUCCUCAUACCACUGUUUUCCUGACUUCCAGCCUUGCCUGACUCACCGGGAUCCUUAUGUUUGGGCCUUCCCCAUCCUAUU; result = 0.574
Strand = CUCCUUGGCAAAGCCAUCUAGGUUCCAGGUGGGUGUCAUGCAUACCACAUGUGCACAGAGCCAGCUGCAGAGGGCACCACAAGGGCACCUUAACCAGCUCCUGAUCUCAA; result = 0.19
Strand = GUGAGCCACUUCCCUUCCCUGCUGCCAGGGGCACGUCCCCCAUCCCCGACUACCCUAUUUAUUAUUGUAGCUAUUUAUUUAUUUAUUGAGGAUGUGCCCCGAGCGCACCC; result = 0.365
Strand = UGUAAAGACAAUGUAGAAAACACACUAAUUACUGUUUGUAGUGUCUUUGGAUGCUCACGGGUUCUGUUCCAGUGCUAUUUUCUAUGAAUAUAGCAGCAUCGUUUCCUUUU; result = 0.354
Strand = CUGGGCCAAGUCAGUUGGAGGCUGAGGCUGCAAGGCCAGGUGUGUAGCCCUUUUGAUCAAAUUGGUCUUCACCUGCUUGCCUCUGAGGCUCCAUCCUUCUACUUCAACCC; result = 0.301
Strand = CCUAAGCCCCCUCCCCAACAAGAUAUCUGCCGAGCUGUCAGGCCCAGCCCACCCUACACCGUGCAAUACCCAGACCCAGCCUGGUCUUUCCCCAGGCCUUUGCCCGCUUC; result = 3.82
Strand = AACACCACCUAGGCGCACGCGAGCAGAAGCCCUCUCUGUAUUACCGCUCCCUACGCAACAUACUUGAAUUCUUGAGUUCCCUUUGGGGUGAGAAAGGAUUUGAAACCAUA; result = 1.3
Strand = UUCUGGUAUUCUGGGUUCAAAAGUAUGACUUGAGAGUGUUGCUCUGGUAUUCUGAGAGUUGCUCUGUAUUCUGGGUUCUGAAGAUUAUUUGAAAAAUAACUCCUACUACA; result = 0.412
Strand = AUUACAAACAAUAAGAACAAGUUUUGGCAGCCAUGAUAAUAGGUCAUAUGUUGUGUUUGGUUCAAUUUUUUUUCCGUAAAUGUCUGCACUGAGGAUUUCUUUUUGGUUUG; result = 3.18
Strand = UCGAGGAUGCUGACCUAAGCCAGAGCCAUCUAGUUGCCCCUCUGGGCAACUUUGGGAAUUCUGGGAUCCCACUGUCUUGACAGGUUCCUAGACCGGAGCGCAUGCUGGCU; result = 9.74
Strand = GCUCUGGAUUCACUCUUCCCUGUCGGCCGCGCAUGUGCUCAUCCCACUCUCCGCUAAGCGGGAGGCUGCUGUUAGAGCAGGCUGCUUCCUGCCUAAAGCAGGCCCUUCGG; result = 0.855
Strand = GCUUAUUUAUUAAUCUUGAUUUAAUACGUUCUCUUCCCAAGCUGGAAGAUCCUCUUUCCAGGCCUCUCUAACCAAGUCUCAAAUAUCCAGGCAGAGUUUUAGUAUGACAU; result = 0.369

Series 4
Target: Histone acetyltransferase KAT6A, winged helix 1, GST fusion (KAT6A, Homo sapiens, UniProt Q92794, residues 1-85)
Technique: protein binding microarray
Form: double-stranded DNA, one strand shown
Matrix: in vitro
Tested at: not given
Setting: 8-mer, flanks averaged, mean of 2 arrays, mostly near background
Reference: not given
Direction: higher = stronger binding
Quantity: E-score
Target sequence (chain): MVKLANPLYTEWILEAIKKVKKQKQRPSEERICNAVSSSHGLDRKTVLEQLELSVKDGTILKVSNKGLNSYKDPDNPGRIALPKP
Strand = ATAATACA; result = -0.1
Strand = GGCGGGTA; result = 0.368
Strand = TTAAGAAA; result = -0.171
Strand = CAGCGAGG; result = -0.112
Strand = CCACAGGG; result = -0.0957
Strand = GCAAGTGA; result = -0.14
Strand = ACAAGTTG; result = -0.0922
Strand = AGGCCCCT; result = -0.0772
Strand = AGTTACAC; result = -0.0475
Strand = AGGGTTAG; result = -0.0791
Strand = CCAACACA; result = -0.212
Strand = ATCCTCTA; result = -0.259
Strand = ACGCATGC; result = 0.203
Strand = CGGCTTTA; result = 0.267
Strand = ACTTTTAG; result = -0.0123
Strand = CAGGGTCG; result = 0.00271
Strand = GGCTCTTA; result = -0.12
Strand = GTTGTGGA; result = -0.201
Strand = ACAAGTCC; result = -0.0422
Strand = TCCCTCAA; result = -0.125
Strand = CTGAACGA; result = -0.164
Strand = CGCTCCTC; result = 0.131
Strand = CTTCAGCA; result = -0.175

Series 5
Target: PABPC1L2, full length, GST fusion (mouse, UniProt A0ABA7IW68)
Technique: RNAcompete
Form: RNA
Matrix: in vitro
Tested at: 20 nM
Setting: 7-mer, probes averaged, single round
Reference: mean of 7-mers
Direction: higher = stronger binding
Quantity: 7-mer Z-score
Target sequence (chain): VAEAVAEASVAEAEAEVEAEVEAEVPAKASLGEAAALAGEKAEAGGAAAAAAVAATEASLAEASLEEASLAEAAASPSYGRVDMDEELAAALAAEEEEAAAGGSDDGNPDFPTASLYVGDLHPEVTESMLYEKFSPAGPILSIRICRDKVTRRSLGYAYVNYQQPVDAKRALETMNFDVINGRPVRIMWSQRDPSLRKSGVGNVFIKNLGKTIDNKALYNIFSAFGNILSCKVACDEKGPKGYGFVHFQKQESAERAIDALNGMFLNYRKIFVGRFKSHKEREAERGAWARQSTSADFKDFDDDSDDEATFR
Strand = CUCAAUC; result = -0.287
Strand = AAAGAUC; result = 1.55
Strand = UGUCGUG; result = -0.275
Strand = CAACAUA; result = 0.175
Strand = GUACUUC; result = -0.277
Strand = UGAGGAC; result = -0.0355
Strand = AACAUAC; result = 0.425
Strand = UGGGUAC; result = 0.14
Strand = CCUACAU; result = -0.144
Strand = AAUUAAA; result = 0.798
Strand = AUUUAAC; result = -0.0718
Strand = GUCAGAU; result = -0.0772
Strand = ACGCUCA; result = -0.0264
Strand = GUAUUGU; result = -0.278
Strand = UAAGUAU; result = -0.132
Strand = UUUACCG; result = -0.222
Strand = CGGGCCA; result = -0.0192
Strand = CUUUCCU; result = -0.376
Strand = CUUGCGG; result = -0.151
Strand = AUGGUUA; result = -0.141
Strand = ACCAGAG; result = -0.0192
Strand = UUGGAUG; result = -0.139
Strand = CCAAGUA; result = -0.0935
Strand = GUGGGAU; result = 0.242
Strand = GGUUCAA; result = 0.0334

Some of these lines once more (series 2):
Strand = GACGGTTTCGGGACTGAGGACGTGCTA; result = 7.2 z-score
Strand = TTAGGTTTCATTATCCTTTAGTGCTAG; result = 7.04 z-score
Strand = TTAGGTATCCATCTCCTTTAGTGCTAG; result = 0.771 z-score
Strand = TTAGATCTCAATCTCGATTAGTGCTAG; result = 1.34 z-score
Strand = GAGGAGGGGCTGTTACTCTCGTGCTAG; result = 0.462 z-score
Strand = TAACTAATATTAAATATGTAGTGCTAG; result = 0.163 z-score
Strand = GACGGACTGGACCCTGGGGACGTGCTA; result = -0.598 z-score
Strand = TTAGATTTCGGGTATGGATTAGTGCTA; result = 1.24 z-score
